{"data": "Published values collected from several papers", "observed": "cell growth or viability", "note": "Lines come from different studies, so protocols differ."}
{"SMILES": "CC(=NNC(N)=S)c1ccc(Nc2nnc(-c3ccc(Cl)cc3)c3ccccc23)cc1", "cell line": "HepG2", "test": "MTT", "setting": "5 µM", "quantity": "cell death", "result": "92.6%"}
{"SMILES": "CS(=O)(=O)NCCC(=O)Nc1ccccc1/N=c1\\cc(-c2ccc3nc(N)oc3c2)oc2ccccc12", "cell line": "NCI-H1975", "test": "CCK-8", "setting": "1 µM", "quantity": "inhibition", "result": "-3.35%"}
{"SMILES": "c1cc(Nc2nccc(NC3CCCCC3)n2)cc(N2CCOCC2)c1", "cell line": "BJ", "test": "ATP luminescence", "setting": "72 h", "quantity": "EC50", "result": "> 14 µM"}
{"SMILES": "CC(=NNC(=O)c1ccccc1O)c1ccc(Nc2nnc(-c3ccc(Cl)cc3)c3ccccc23)cc1", "cell line": "HepG2", "test": "MTT", "setting": "0.312 µM", "quantity": "cell death", "result": "1.77%"}
{"SMILES": "CN(C)CC1(NC(=O)c2ccc(-c3nc4ccc5[nH]ncc5c4c4c3CCCC4)cc2)CC1", "cell line": "K562", "test": "resazurin", "setting": "72 h", "quantity": "GI50", "result": "5.3 µM"}
{"SMILES": "COc1ccc(NC(=O)c2c(Nc3ccccc3)sc(C#N)c2NC(=O)CNc2ccc([N+](=O)[O-])cc2)cc1", "cell line": "HCT-116", "test": "SRB", "setting": "10 µM, 48 h", "quantity": "viability", "result": "56.2%"}
{"SMILES": "Cc1n[nH]c2ccc3nc(-c4ccc(C(=O)N(C)CCN(C)C)cc4)c4c(c3c12)CCC(C)(C)C4", "cell line": "K562", "test": "resazurin", "setting": "72 h", "quantity": "GI50", "result": "5.9 µM"}
{"SMILES": "Cc1nc(Nc2ncc(C(=O)Nc3c(C)cccc3Cl)s2)cc(N2CC[C@H](O)C2)n1", "cell line": "JVM-3", "test": "ATP luminescence", "setting": "10 µM, 72 h", "quantity": "inhibition", "result": "61%"}
{"SMILES": "CCCn1cnc2ccc(-c3ccc(N4CCCCCC4=O)nc3)cc2c1=O", "cell line": "HCC827", "test": "CCK-8", "setting": "72 h", "quantity": "IC50", "result": "> 10 µM"}
{"SMILES": "CC(=NNC(=O)c1ccccc1Cl)c1ccc(Nc2nnc(-c3ccc(Cl)cc3)c3ccccc23)cc1", "cell line": "HepG2", "test": "MTT", "setting": "1.25 µM", "quantity": "cell death", "result": "94.5%"}
{"SMILES": "CC(C)Nc1ccnc(Nc2cccc(-c3ncco3)c2)n1", "cell line": "BJ", "test": "ATP luminescence", "setting": "72 h", "quantity": "EC50", "result": "> 19 µM"}
{"SMILES": "Cc1n[nH]c2ccc3nc(-c4ccc(C(=O)N(C)CCN(C)C)nc4)c4c(c3c12)CCCCC4", "cell line": "K562", "test": "resazurin", "setting": "72 h", "quantity": "GI50", "result": "> 10 µM"}
{"SMILES": "COc1ccc(NC(=O)c2c(Nc3ccccc3)sc(C(=O)NN=Cc3cc(OC)c(OC)c(OC)c3)c2NC(C)=O)cc1", "cell line": "HepG2", "test": "SRB", "setting": "1 µM, 48 h", "quantity": "viability", "result": "58.2%"}
{"SMILES": "NCCC(=O)Nc1ccccc1/N=c1\\cc(-c2ccc3c(c2)OCCO3)oc2cc(F)ccc12", "cell line": "MOLM-13", "test": "CCK-8", "setting": "1 µM", "quantity": "inhibition", "result": "10.3%"}
{"SMILES": "CCC(=CCc1c(O)cc2c(c1O)C(=O)C[C@@H](c1ccc(O)cc1)O2)CC", "cell line": "HeLa", "test": "MTT", "setting": "12.5 µM, 48 h", "quantity": "inhibition", "result": "7.15%"}
{"SMILES": "COc1ccc(NC(=O)c2c(Nc3ccccc3)sc(C(=O)NN=Cc3ccc(C)cc3)c2NC(C)=O)cc1", "cell line": "HepG2", "test": "SRB", "setting": "10 nM, 48 h", "quantity": "viability", "result": "96.3%"}
{"SMILES": "CCCCC(=O)Nc1ccc(-c2ccc3ncn(CCC)c(=O)c3c2)cn1", "cell line": "NCI-H1975", "test": "CCK-8", "setting": "72 h", "quantity": "IC50", "result": "0.062 µM"}
{"SMILES": "CN(C)CCNC(=O)c1ccc(-c2nc3ccc4[nH]ncc4c3c3c2CCCCC3)cn1", "cell line": "K562", "test": "resazurin", "setting": "72 h", "quantity": "GI50", "result": "6.4 µM"}
{"SMILES": "O=C(Nc1ccc(Oc2nnc(-c3ccc(Cl)cc3)c3ccccc23)cc1)c1cccc([N+](=O)[O-])c1", "cell line": "HepG2", "test": "MTT", "setting": "1.25 µM", "quantity": "cell death", "result": "48.2%"}
{"SMILES": "CNC(=O)c1cc(Oc2ccc(NC(=O)Nc3ccc(Cl)c(C(F)(F)F)c3)cc2)ccn1", "cell line": "HCT-116", "test": "SRB", "setting": "10 µM, 48 h", "quantity": "viability", "result": "37.1%"}
{"SMILES": "CC(=NNC(=O)c1ccccc1Br)c1ccc(Nc2nnc(-c3ccc(Cl)cc3)c3ccccc23)cc1", "cell line": "HepG2", "test": "MTT", "setting": "10 µM", "quantity": "cell death", "result": "95.5%"}
{"SMILES": "NCCC(=O)Nc1ccccc1/N=c1\\cc(-c2ccc3c(c2)OCO3)oc2ccccc12", "cell line": "NCI-H1975", "test": "CCK-8", "setting": "1 µM", "quantity": "inhibition", "result": "4.64%"}
{"SMILES": "COc1ccc(NC(=O)c2c(Nc3ccccc3)sc(C#N)c2NC(=O)CNc2ccccc2Cl)cc1", "cell line": "HCT-116", "test": "SRB", "setting": "1 nM, 48 h", "quantity": "viability", "result": "99.2%"}
{"SMILES": "CCCCn1cnc2ccc(-c3ccc(NC(C)=O)nc3)cc2c1=O", "cell line": "HCC827", "test": "CCK-8", "setting": "72 h", "quantity": "IC50", "result": "> 10 µM"}
{"SMILES": "COc1ccc(NC(=O)c2c(Nc3ccccc3)sc(C#N)c2NC(=O)CNc2ccc(Br)cc2)cc1", "cell line": "HCT-116", "test": "SRB", "setting": "100 µM, 48 h", "quantity": "viability", "result": "45.4%"}
{"SMILES": "CCCn1cnc2ccc(-c3ccc(N4CCCC4=O)nc3)cc2c1=O", "cell line": "HCC827", "test": "CCK-8", "setting": "72 h", "quantity": "IC50", "result": "> 10 µM"}
{"SMILES": "COC(=O)c1cccc(-c2cccc(Nc3nccc(NC4CCCCC4)n3)c2)c1", "cell line": "BJ", "test": "ATP luminescence", "setting": "72 h", "quantity": "EC50", "result": "21.5 µM"}
{"SMILES": "CC(=O)Nc1ccc(Oc2nnc(-c3ccc(Cl)cc3)c3ccccc23)cc1", "cell line": "HepG2", "test": "MTT", "setting": "0.312 µM", "quantity": "cell death", "result": "64.8%"}
{"SMILES": "c1cncc(-c2cccc(Nc3nccc(NC4CCNCC4)n3)c2)c1", "cell line": "BJ", "test": "ATP luminescence", "setting": "72 h", "quantity": "EC50", "result": "> 10 µM"}
{"SMILES": "CN(C)CCN(C)C(=O)c1ccc(-c2nc3ccc4[nH]ncc4c3c3c2CCCCC3)cc1", "cell line": "K562", "test": "resazurin", "setting": "72 h", "quantity": "GI50", "result": "8.8 µM"}
{"SMILES": "CCCCC(=O)Nc1ccc(-c2ccc3ncn(C4CC4)c(=O)c3c2)cn1", "cell line": "NCI-H1975", "test": "CCK-8", "setting": "72 h", "quantity": "IC50", "result": "3.23 µM"}
{"SMILES": "NCC(=O)Nc1ccccc1/N=c1\\cc(-c2ccc3c(c2)OCO3)oc2c([N+](=O)[O-])cccc12", "cell line": "MOLM-13", "test": "CCK-8", "setting": "1 µM", "quantity": "inhibition", "result": "3.85%"}
{"SMILES": "C=C(F)C(=O)N1CCN(c2nc(OC[C@@H]3CCCN3C)nc3c2CCN(c2cccc4cccc(Cl)c24)C3)C[C@@H]1CC#N", "cell line": "SW1573", "test": "ATP luminescence", "quantity": "IC50", "result": "> 10 µM"}
{"SMILES": "CCCn1cnc2ccc(-c3ccc(NC(=O)CC)nc3)cc2c1=O", "cell line": "HCC827", "test": "CCK-8", "setting": "72 h", "quantity": "IC50", "result": "0.95 µM"}
{"SMILES": "O=C(Nc1ccccc1)Nc1ccc(Oc2nnc(-c3ccc(Cl)cc3)c3ccccc23)cc1", "cell line": "HepG2", "test": "MTT", "setting": "1.25 µM", "quantity": "cell death", "result": "94%"}
{"SMILES": "O=C(Nc1ccccc1/N=c1\\cc(-c2ccc3c(c2)OCCO3)oc2cc(F)ccc12)N1CCOCC1", "cell line": "HCT-116", "test": "CCK-8", "setting": "1 µM", "quantity": "inhibition", "result": "14.3%"}
{"SMILES": "CC(C)Nc1ccnc(Nc2ccc(C(N)=O)cc2)n1", "cell line": "BJ", "test": "ATP luminescence", "setting": "72 h", "quantity": "EC50", "result": "> 12 µM"}
{"SMILES": "CCCCC(=O)Nc1cc(F)c(-c2ccc3ncn(CCC)c(=O)c3c2)cn1", "cell line": "NCI-H1975", "test": "CCK-8", "setting": "72 h", "quantity": "IC50", "result": "6.62 µM"}
{"SMILES": "NCC(=O)Nc1ccccc1/N=c1\\cc(-c2ccc3c(c2)OCO3)oc2c(N)cccc12", "cell line": "MOLM-13", "test": "CCK-8", "setting": "1 µM", "quantity": "inhibition", "result": "2.36%"}
{"SMILES": "CCCC(=O)Nc1ccc(-c2ccc3ncn(CCC)c(=O)c3c2)cn1", "cell line": "NCI-H1975", "test": "CCK-8", "setting": "72 h", "quantity": "IC50", "result": "0.078 µM"}
{"SMILES": "COc1ccc(NC(=O)c2c(Nc3ccccc3)sc(C(=O)NN=Cc3ccc(Cl)cc3)c2NC(C)=O)cc1", "cell line": "HCT-116", "test": "SRB", "setting": "0.1 µM, 48 h", "quantity": "viability", "result": "82.5%"}
{"SMILES": "CN(c1cccc(-c2cccnc2)c1)c1nccc(NC2CCCCC2)n1", "cell line": "BJ", "test": "ATP luminescence", "setting": "72 h", "quantity": "EC50", "result": "> 4 µM"}
{"SMILES": "COc1ccc2/c(=N/c3ccccc3NC(=O)N3CCOCC3)cc(-c3ccc4c(c3)OCCO4)oc2c1", "cell line": "NCI-H1975", "test": "CCK-8", "setting": "1 µM", "quantity": "inhibition", "result": "4.59%"}
{"SMILES": "c1cncc(-c2cccc(Nc3nccc(NC4CCC4)n3)c2)c1", "cell line": "BJ", "test": "ATP luminescence", "setting": "72 h", "quantity": "EC50", "result": "> 17 µM"}
{"SMILES": "O=C(Nc1ccc(Oc2nnc(-c3ccc(Cl)cc3)c3ccccc23)cc1)c1ccccc1", "cell line": "HepG2", "test": "MTT", "setting": "1.25 µM", "quantity": "cell death", "result": "95.1%"}
{"SMILES": "c1cncc(-c2cccc(Nc3nccc(NC4CC4)n3)c2)c1", "cell line": "BJ", "test": "ATP luminescence", "setting": "72 h", "quantity": "EC50", "result": "> 19 µM"}
{"SMILES": "O=C(Nc1ccccc1/N=c1\\cc(-c2ccc3c(c2)OCO3)oc2ccccc12)N1CCNCC1", "cell line": "NCI-H1975", "test": "CCK-8", "setting": "1 µM", "quantity": "inhibition", "result": "-5.27%"}
{"note": "For quick reference, copied from above:"}
{"SMILES": "O=C(Nc1ccccc1/N=c1\\cc(-c2ccc3c(c2)OCCO3)oc2cc(F)ccc12)N1CCOCC1", "cell line": "HCT-116", "test": "CCK-8", "setting": "1 µM", "quantity": "inhibition", "result": "14.3%"}
{"SMILES": "CC(C)Nc1ccnc(Nc2ccc(C(N)=O)cc2)n1", "cell line": "BJ", "test": "ATP luminescence", "setting": "72 h", "quantity": "EC50", "result": "> 12 µM"}
{"SMILES": "CCCCC(=O)Nc1cc(F)c(-c2ccc3ncn(CCC)c(=O)c3c2)cn1", "cell line": "NCI-H1975", "test": "CCK-8", "setting": "72 h", "quantity": "IC50", "result": "6.62 µM"}
